Experimental data gathered from unrelated publications.
Compare with care: the assays were run in different laboratories. “And” joins repeats or separate records; there may be more than shown. ± marks the error that the study gave.
DRD4: D(4) dopamine receptor (DRD4, Homo sapiens, UniProt P21917)
UniProt P21917, sequence (whole entry, looked up): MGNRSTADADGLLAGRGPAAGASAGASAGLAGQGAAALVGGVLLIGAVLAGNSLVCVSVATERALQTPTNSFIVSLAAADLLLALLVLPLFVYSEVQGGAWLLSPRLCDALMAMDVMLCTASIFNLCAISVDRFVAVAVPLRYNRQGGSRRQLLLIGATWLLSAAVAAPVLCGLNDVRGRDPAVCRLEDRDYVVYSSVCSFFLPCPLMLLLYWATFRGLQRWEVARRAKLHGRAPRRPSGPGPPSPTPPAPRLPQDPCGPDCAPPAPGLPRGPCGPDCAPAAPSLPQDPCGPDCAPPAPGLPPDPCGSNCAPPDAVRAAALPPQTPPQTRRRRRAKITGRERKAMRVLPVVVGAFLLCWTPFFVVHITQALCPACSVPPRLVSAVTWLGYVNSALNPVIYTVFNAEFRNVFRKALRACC
UniProt Q92851, sequence (whole entry, looked up): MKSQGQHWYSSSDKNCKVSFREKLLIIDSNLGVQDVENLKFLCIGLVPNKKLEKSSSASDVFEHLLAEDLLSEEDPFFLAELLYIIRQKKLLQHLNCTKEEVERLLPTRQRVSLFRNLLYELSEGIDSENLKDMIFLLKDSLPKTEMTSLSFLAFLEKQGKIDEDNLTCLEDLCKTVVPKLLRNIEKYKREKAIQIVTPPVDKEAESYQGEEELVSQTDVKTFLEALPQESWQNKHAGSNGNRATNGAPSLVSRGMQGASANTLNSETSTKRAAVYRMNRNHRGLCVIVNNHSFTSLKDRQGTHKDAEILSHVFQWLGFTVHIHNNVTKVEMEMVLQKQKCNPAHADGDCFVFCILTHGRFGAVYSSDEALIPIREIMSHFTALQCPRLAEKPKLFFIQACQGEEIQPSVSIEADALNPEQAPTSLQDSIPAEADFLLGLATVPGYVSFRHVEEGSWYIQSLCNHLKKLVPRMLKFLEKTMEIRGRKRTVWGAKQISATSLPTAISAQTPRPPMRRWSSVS

Structure (SMILES) = Cc1nc(=S)[nH]c(C)c1/N=N/c1nnc(S)s1; tested on = Vero; assay = cell viability, MTT; setting = 0.625 µg/mL; quantity = inhibition; value = 11 ± 0.173%
Structure (SMILES) = O=C(CCCCCOc1ccc2ccccc2c1)N[C@@H](CO)C[C@@H](O)c1ccc(-c2ccccc2)cc1; tested on = HeLa; assay = CERT activity, HPLC-MS/MS lipidomics, item: lactosylceramide 24:1; setting = 1 µM, 24 h, not cell-number normalised; quantity = lactosylceramide level; value = 6300 pmol/sample and 8020 pmol/sample and 8050 pmol/sample
Structure (SMILES) = CN(C)CCOc1cc(NC(=O)c2cccc(C(=O)Nc3cc(OCCN(C)C)c4ccccc4n3)n2)nc2ccccc12; tested on = U2OS; assay = cell viability, CellTiter-Glo; setting = 72 h; how to read = relative to: IC50 U2OS over WI-38; quantity = selectivity ratio; value = 0.9
Structure (SMILES) = N#Cc1cccc(OCC2CN(Cc3cn4nc(Cl)ccc4n3)CCC2(F)F)c1 (stereo not shown); tested on = DRD4; assay = ligand displacement, radioligand; setting = cell membranes; quantity = Ki; value = 35 nM
Structure (SMILES) = CO[C@@H]1[C@@H](OC(N)=O)[C@@H](O)[C@H](Oc2ccc3c(O)c(NC(=O)c4ccc(O)c(CC=C(C)C)c4)c(=O)oc3c2C)OC1(C)C; tested on = DLD-1 BRCA2-/-; setting = 75 µM, replicate 2; quantity = colony count; value = 12.5
Structure (SMILES) = Cc1c(Cl)cccc1Nc1ccccc1C(=O)[Se]CC(=O)Nc1cccc(C(F)(F)F)c1; tested on = NCI60 ovarian subpanel; assay = total growth inhibition, inhibitor; setting = five-dose; quantity = mean TGI; value = 3550 nM
Structure (SMILES) = COc1ccc(CN2CCC(F)(F)C(COc3cccc(F)n3)C2)cc1F (stereo not shown); tested on = DRD4; assay = ligand displacement, radioligand; setting = cell membranes; quantity = Ki; value = 150 nM
Structure (SMILES) = CNS(=O)(=O)Nc1nccc(Cc2c(C)c3ccc(Oc4ncccc4F)cc3oc2=O)c1F; tested on = KHOS/NP; assay = cell viability, CellTiter-Glo; setting = 7 days; quantity = IC50; value = 16.3 nM
Structure (SMILES) = CC(=O)N[C@@H](Cc1c[nH]c2ccccc12)C(=O)N[C@@H](CCCCN)C(=O)N[C@@H](CCC(=O)O)C(=O)N[C@@H](CC(=O)O)C(=O)COC(=O)c1c(C)cccc1C; tested on = Caspase-10 (CASP10, Homo sapiens, UniProt Q92851); assay = enzyme activity, inhibitor; quantity = kinact/KI; value = 14500 M⁻¹ s⁻¹
Structure (SMILES) = Cc1ncsc1-c1ccc(C(C)NC(=O)C2CC(O)CN2C(=O)C(NC(=O)CCCCCCCCCCN2CCCC(Nc3ncc(Cl)c(Nc4ccccc4S(=O)(=O)C(C)C)n3)C2)C(C)(C)C)cc1 (stereo not shown); tested on = 22Rv1; assay = RNA-seq, item: LMLN mRNA; setting = concentration not given; how to read = relative to: DMSO; quantity = log2 fold change; value = -1.46
Structure (SMILES) = O=C(C[Se]C(=O)c1ccccc1Nc1cccc(C(F)(F)F)c1)Nc1cccc(C(F)(F)F)c1; tested on = NCI60 ovarian subpanel; assay = total growth inhibition, inhibitor; setting = five-dose; quantity = mean TGI; value = 3840 nM
Structure (SMILES) = COc1cc([C@@H]2O[C@@H](c3cc(OC)c(O[C@@H]4O[C@H](CO)[C@@H](O)[C@H](O)[C@H]4O)c(OC)c3)[C@H](CO)[C@H]2CO)cc(OC)c1O; tested on = differentiating 3T3-L1 pre-adipocytes; assay = Western blot, item: p18 p21 p27; setting = concentration not given, day 1, mitotic clonal expansion; how to read = relative to: untreated; quantity = protein expression; value = increased
Structure (SMILES) = CCCCCCCCCCCCCCCC(=O)OCC(CSC[C@H](N)C(=O)N[C@@H](CO)C(=O)N[C@@H](CCCCN)C(=O)N[C@@H](CCCCN)C(=O)N[C@@H](CCCCN)C(=O)N[C@@H](CCCCN)C(=O)NCCCCCC(=O)N[C@@H](CCCCN)C(=O)N[C@@H](CC(C)C)C(=O)N[C@H](C(=O)N[C@@H](Cc1ccccc1)C(=O)N[C@@H](Cc1ccccc1)C(=O)N[C@@H](Cc1ccc2ccccc2c1)C(=O)O)C(C)C)OC(=O)CCCCCCCCCCCCCCC (stereo partly shown); tested on = BV-2; assay = Western blot, item: MSR1; setting = concentration not given, unit not given; how to read = relative to: control; quantity = protein level; value = 1.33 and 1.39
Structure (SMILES) = Cc1ccc([N+](=O)[O-])cc1S(=O)(=O)N(C)/N=C/c1cnc2ccc(Br)cn12; tested on = HuT78; assay = Th2 pathway, NanoString IPA; setting = 50 nM, 10 h; how to read = direction not given; quantity = activation z-score; value = -2.24
Structure (SMILES) = Cc1ccc(-n2cc(CSc3nc4ccccc4n3Cc3cn(-c4ccc(C)cc4)nn3)nn2)cc1; tested on = Caco-2; assay = MTT; setting = 3.91 ppm; quantity = cytotoxicity; value = 5.5%
Structure (SMILES) = CC[C@H](CO)Nc1nc(NCc2ccc(-c3ccccn3)cc2)c2ncn(C(C)C)c2n1; tested on = MOLT-4; assay = TMT mass spectrometry proteomics, item: KDM5B protein; setting = 1 µM, 1 h; how to read = relative to: DMSO; quantity = log2 fold change; value = 1.31
Structure (SMILES) = O=C(C[Se]C(=O)C12CC3CC(CC(C3)C1)C2)Nc1cccc(C(F)(F)F)c1; tested on = NCI60 ovarian subpanel; assay = total growth inhibition, inhibitor; setting = five-dose; quantity = mean TGI; value = 12700 nM
Structure (SMILES) = CCN(C(=O)c1cc(F)ccc1Oc1nncnc1N1CCC2(C1)CN([C@H](CCCN(C)CCOC)C(C)C)C2)C(C)C; tested on = MT-3; assay = cell growth or viability; setting = 7 days; quantity = GI50; value = > 10000 nM
Structure (SMILES) = O=C(N1CCCC1)n1cc(-c2ccc(-c3ccccc3)cc2)nn1; tested on = mouse T cells; assay = N-terminal labelling proteomics, item: Larp1 N-terminal peptide; setting = 0.001 µM, 6 h; how to read = relative to: DMSO; quantity = SILAC ratio per peptide; value = 1.02 and 1.39
Structure (SMILES) = O=C(C[Se]C(=O)c1ccccc1Nc1ccccc1)Nc1cccc(C(F)(F)F)c1; tested on = NCI60 non-small-cell lung subpanel; assay = cell growth; setting = 10 µM, 48 h, one-dose; quantity = mean growth percent; value = -81.9%
Structure (SMILES) = CCN(CC)CC(=O)Nc1cccc(-n2cc(-c3ccc4ccc(-c5cn(-c6cccc(NC(=O)CN(CC)CC)c6)nn5)cc4c3)nn2)c1; tested on = RCC4; assay = PCR angiogenesis array, item: HIF1A; setting = 5 x IC50, 4 h, normoxia; how to read = relative to: untreated; quantity = fold regulation; value = -1.14
Structure (SMILES) = COC1CN([C@H]2CC[C@H]([C@@]3(C)Oc4c(Cl)cc(C(=O)NCc5c(SC)cc(C)[nH]c5=O)c(C)c4O3)CC2)C1; assay = RNA-seq, item: FRMD4B; system = human, whole blood; setting = dose not given, 24 h; how to read = relative to: pretreatment baseline; quantity = log2 fold change; value = 1.48
Structure (SMILES) = O=CCNCCOn1c(=O)n(OCCNCCO)c(=O)n(OCCNCCOn2c(=O)n(OCCNCCO)c(=O)n(OCCNCCO)c2=O)c1=O; tested on = A549; assay = cell growth or viability, MTT; setting = 200 µg/mL, 24 h; quantity = viability; value = 17.2%
Structure (SMILES) = C=CC(=O)N1[C@H](c2ccc3c(c2)OCO3)c2[nH]c3ccccc3c2C[C@@H]1C(=O)NC1CC1; tested on = rat DRG neurons; setting = 3.333 µM, 48 h, with: vincristine 40 nM; quantity = neuron degeneration; value = 20.3% and 17.1%
Structure (SMILES) = CC(C)Cc1ccc(C(C)C(=O)[Se]CC(=O)Nc2cccc(C(F)(F)F)c2)cc1 (stereo not shown); tested on = NCI60 ovarian subpanel; assay = cell growth, inhibitor; setting = five-dose; quantity = GI50; value = 1920 nM
Structure (SMILES) = CCOc1cncc(-c2ccc(NC(=O)C3(c4ccnc(NS(=O)(=O)C5CC5)n4)CCOCC3)nc2)n1; tested on = L-363; assay = cell growth or viability, ATP luminescence; setting = 72 h; quantity = IC50; value = 5 nM
Structure (SMILES) = Cn1ncc2cc(-c3cncc(Cl)c3N3CCC4(CCNC4=O)CC3)ccc21; tested on = LS174T; assay = gene expression, microarray, item: NPTX1 mRNA; setting = concentration not given, 4 h; how to read = relative to: untreated cells; quantity = log2 fold change; value = -1.36
Structure (SMILES) = COC(=O)c1cc(NC2=NC(=O)C(=Cc3ccc(N(C)C)cc3)S2)ccc1OC(C)=O; tested on = A549; assay = item: EYA3 mRNA; setting = 2.93 µM (IC50), 24 h; how to read = relative to: DMSO; quantity = fold change; value = 0.026
Structure (SMILES) = COc1cc(N2CCN(C(=O)C3CCCN3)CC2)ccc1Nc1ncc(Cl)c(Nc2ccccc2P(C)(C)=O)n1 (stereo not shown); tested on = Ba/F3 EML4-ALK; assay = annexin V flow cytometry; setting = concentration not given, 6 h; quantity = early apoptotic cells; value = 4.5%
Structure (SMILES) = COc1cc(N2CCOCC2)ccc1Nc1ncc(Cl)c(Nc2ccccc2NS(C)(=O)=O)n1; tested on = PC-9 del19/T790M/C797S cells; assay = annexin V/PI staining; setting = 3 µM, 24 h; quantity = apoptotic cells; value = 31.4%
Structure (SMILES) = O=C(C[Se]C(=O)c1cc2ccccc2o1)Nc1cccc(C(F)(F)F)c1; tested on = NCI60 ovarian subpanel; assay = total growth inhibition, inhibitor; setting = five-dose; quantity = mean TGI; value = 3590 nM
Structure (SMILES) = C1=[N+]2CCCC[N+]3=Cc4ccc5[n]4[Au-]23[n]2c1ccc2-c1nc2ccccc2nc1-5.F[P-](F)(F)(F)(F)F; tested on = SF-268; assay = NCI60 five-dose screen; quantity = TGI; value = 5.63 -log M
Structure (SMILES) = COC(=O)c1cc(NC2=NC(=O)C(=Cc3ccc(C)cc3)S2)ccc1OC(C)=O; tested on = MCF7; assay = GC-MS, item: 2-Butenedioic acid; setting = 1 µM; how to read = relative to: DMSO; quantity = metabolite level; value = -0.17 fold change
Structure (SMILES) = CC(C)c1ccc(N(C)c2ccc3c(c2)OCC[C@H]3CNc2cnccc2C(=O)O)cc1; tested on = SCC-4; assay = cell viability; setting = 7 days; quantity = IC50; value = 10.5 nM
Structure (SMILES) = CN1CCCNC(=O)c2cccc(c2)C(=O)NCCCN(C)CCCNc2cccc3c2C(=O)c2cccc(c2C3=O)NCCC1; tested on = SAS; assay = RNA-Seq, item: NFKB1 mRNA; setting = 1 µM, 24 h; how to read = relative to: untreated cells; quantity = log2 fold change; value = -2.52
Structure (SMILES) = Cc1nc(=S)[nH]c(C)c1/N=N/c1nnc(S)[nH]1; tested on = Vero; assay = cell viability, MTT; setting = 0.625 µg/mL; quantity = inhibition; value = 12.2 ± 0.303%
Structure (SMILES) = CN(C)CCN1CCN(c2ccc3nc(-c4ccc5nc(-c6ccc(C(F)(F)F)cc6)[nH]c5c4)[nH]c3c2)CC1; tested on = SF-539; assay = SRB; setting = 10 µM, 48 h; quantity = growth percent; value = 65.8%

A few entries again:
Structure (SMILES) = COc1ccc(CN2CCC(F)(F)C(COc3cccc(F)n3)C2)cc1F (stereo not shown); tested on = DRD4; assay = ligand displacement, radioligand; setting = cell membranes; quantity = Ki; value = 150 nM
Structure (SMILES) = CNS(=O)(=O)Nc1nccc(Cc2c(C)c3ccc(Oc4ncccc4F)cc3oc2=O)c1F; tested on = KHOS/NP; assay = cell viability, CellTiter-Glo; setting = 7 days; quantity = IC50; value = 16.3 nM
Structure (SMILES) = CC(=O)N[C@@H](Cc1c[nH]c2ccccc12)C(=O)N[C@@H](CCCCN)C(=O)N[C@@H](CCC(=O)O)C(=O)N[C@@H](CC(=O)O)C(=O)COC(=O)c1c(C)cccc1C; tested on = Caspase-10 (CASP10, Homo sapiens, UniProt Q92851); assay = enzyme activity, inhibitor; quantity = kinact/KI; value = 14500 M⁻¹ s⁻¹
